Assay results of several laboratories.
Each numbered part is a random draw from the data of one study; scales do not carry over between parts. Values joined by “and” are separate records of one study, mostly repeats; a detail may differ.
Chain of UniProt P46098 (whole entry, looked up): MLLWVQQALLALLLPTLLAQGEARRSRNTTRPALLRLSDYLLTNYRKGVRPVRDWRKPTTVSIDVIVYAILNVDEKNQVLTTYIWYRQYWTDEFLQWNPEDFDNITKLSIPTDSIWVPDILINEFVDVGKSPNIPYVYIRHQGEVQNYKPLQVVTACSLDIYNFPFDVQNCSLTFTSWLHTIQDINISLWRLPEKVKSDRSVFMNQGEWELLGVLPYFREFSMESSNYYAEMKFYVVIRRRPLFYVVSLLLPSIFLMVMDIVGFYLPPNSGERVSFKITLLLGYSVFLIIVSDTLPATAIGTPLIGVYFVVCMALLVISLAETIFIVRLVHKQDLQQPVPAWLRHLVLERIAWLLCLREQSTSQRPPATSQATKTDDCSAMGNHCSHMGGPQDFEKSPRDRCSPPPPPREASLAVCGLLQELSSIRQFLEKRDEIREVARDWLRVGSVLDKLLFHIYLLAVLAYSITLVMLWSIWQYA

Study 1
Target: Transcription factor SOX-2, HMG box (Sox2, Mus musculus, UniProt P48432, residues 41-119)
Chain of UniProt P48432 (41-119, looked up): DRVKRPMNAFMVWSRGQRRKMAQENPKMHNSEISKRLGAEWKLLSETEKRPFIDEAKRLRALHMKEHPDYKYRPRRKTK
Technique: Spec-seq
Form: double-stranded DNA, one strand shown
Medium: in vitro
Concentration: not given
Notes: whole probe, mean of replicates
Reference: not given
Direction: lower = stronger binding
Shared flanks, not repeated: GAGTCGTCTCGTCAGCAC … CCGTAGAGCACTCAGGTC
Oligonucleotide	relative binding energy
CATCCTA	0.671 ln ratio
TAACGTT	0.767 ln ratio
CATAAAT	-0.261 ln ratio
ACTGGTT	-0.268 ln ratio
CATCGTA	0.567 ln ratio
GTGAGTT	1.17 ln ratio
CATTCGA	-0.229 ln ratio
GCATGTT	0.53 ln ratio

Study 2
Target: PABPC1L2, full length, GST fusion (mouse, UniProt A0ABA7IW68)
Technique: RNAcompete
Form: RNA
Medium: in vitro
Concentration: 20 nM
Notes: 7-mer, probes averaged, single round
Reference: mean of 7-mers
Direction: higher = stronger binding
Target sequence (chain): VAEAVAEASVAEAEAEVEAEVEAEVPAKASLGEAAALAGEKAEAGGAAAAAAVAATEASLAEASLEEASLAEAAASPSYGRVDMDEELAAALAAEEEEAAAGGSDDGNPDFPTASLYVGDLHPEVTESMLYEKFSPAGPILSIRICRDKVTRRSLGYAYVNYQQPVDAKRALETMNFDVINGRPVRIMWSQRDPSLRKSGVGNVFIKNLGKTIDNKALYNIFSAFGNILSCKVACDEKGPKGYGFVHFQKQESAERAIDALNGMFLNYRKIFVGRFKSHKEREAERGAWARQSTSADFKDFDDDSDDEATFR
Oligonucleotide	7-mer Z-score
AAAUUGA	1.43
CCUUGAA	-0.0844
UAACACU	-0.2
AGACUAU	-0.249
UAAUUAG	-0.0935
AGUAUCC	-0.262
GCUGCAA	0.0805
GACUGAU	-0.17

Single results of other studies
SMILES	tested on	test	test system	setting	measurement	result
COc1ccc(-c2c(Nc3ccccn3)[nH]c3c(C4=CCCCC4)c(-c4ccccc4)nn3c2=O)cc1		LC-MS/MS	human, plasma	oral, 50 mg once daily	AUC(0-24)	33000 ng·h/mL and 34900 ng·h/mL
CN([C@@H]1CCc2c(CC(=O)O)c3cc(S(C)(=O)=O)ccc3n2C1)S(=O)(=O)c1ccc(F)cc1	HTR3A (Homo sapiens, UniProt P46098)	binding, radioligand binding		10 µM	inhibition	-2.99%
Cc1cc2c(C(N)=O)c(N)n(-c3c(C)ccc(O)c3C)c2nc1C		KINOMEscan	403 non-mutant kinase panel	1000 nM, percent of control below 10	number of kinases bound	29
NC12CC3CC(CC(C3)C1)C2	A-375			100 µM, 18 h	viability	104%
